Results from different studies.
Each line is one published result; not all experiments were run side by side. ± marks the error that the study gave.

| SMILES | organism | assay | system | setting | EC50 |
| --- | --- | --- | --- | --- | --- |
| COc1ccccc1-c1n[nH]c2nc(N[C@H]3CC[C@H](NS(=O)(=O)CC(C)C)CC3)ncc12 | Leishmania donovani |  | mouse peritoneal macrophages, resistant clone intramacrophage amastigotes |  | 251 nM |
| C=C1C(=O)O[C@H]2C[C@H](C)C(/C=C/C(C)=O)=CC[C@H]12 | Sindbis virus | viral replication | Vero |  | > 20000 nM |
| CCCCCCCCCC(=O)OCC1OC(n2cc(C)c(=O)[nH]c2=O)CC1N(C)C (stereo not shown) | coxsackievirus B4 | viral replication | Vero |  | > 230 nM |
| [N-]=[N+]=N[C@]1(CO)O[C@@H](n2ccc(N)nc2=O)C(F)(F)[C@@H]1O | human respiratory syncytial virus | viral replication | NCI-H358 |  | 210 ± 40 nM |
| CC[C@@H]1NC(=O)[C@H]([C@H](O)[C@H](C)Cc2nc3ccc(C(=O)c4ccccc4)cc3[nH]2)N(C)C(=O)[C@H](C(C)C)N(C)C(=O)[C@H](CC(C)C)N(C)C(=O)[C@H](CC(C)C)N(C)C(=O)[C@@H](C)NC(=O)[C@H](C)NC(=O)[C@H](CC(C)C)N(C)C(=O)[C@H](C(C)C)NC(=O)[C@H](CC(C)C)N(C)C(=O)CN(C)C1=O | Human coronavirus NL63 | viral replication, inhibitor, qPCR | Caco-2 | 48 h | 8100 nM |
| O=C(Cc1csc2nc(-c3ccc(Br)cc3)cn12)NN=C1CCCC1 | Feline coronavirus | virus-induced cytopathicity, microscopy | CRFK |  | > 100 µg/mL |
| O=C1/C(=N\NC(=S)NN=Cc2cccs2)c2ccccc2N1Cc1ccccc1 | herpes simplex virus 2 | viral cytopathogenicity | HEL, G |  | > 20000 nM |
| Nc1ncnc2c1c(Cl)cn2[C@@H]1O[C@H](CO)C[C@H]1O | Trypanosoma congolense | parasite growth, resazurin | 6C3 diminazene-resistant | 48 h plus 24 h resazurin | 0.66 ± 0.03 nM |
| Cc1cn(C2CC(N(C)C)C(CO)O2)c(=O)[nH]c1=O (stereo not shown) | coxsackievirus B4 | viral replication | Vero |  | > 370 nM |
| Nc1ncnc2c1c(-c1ccccn1)cn2[C@@H]1O[C@H](CO)[C@@H](O)[C@H]1O | Trypanosoma congolense | parasite growth, resazurin | 6C3 diminazene-resistant | 48 h plus 24 h resazurin | 56 ± 13 nM |
| CN(C(=O)c1ccn2ncc(-c3ccc(C(N)=O)cc3)c2c1)c1ccc(C#N)cn1 | Cryptosporidium parvum | cytopathic effect | HCT-8 |  | 107 ± 39 nM |
| Nc1ncnc2c1ccn2[C@H]1C[C@H](O)[C@@H](CO)O1 | Trypanosoma congolense | parasite growth, resazurin | 6C3 diminazene-resistant | 48 h plus 24 h resazurin | 11000 ± 2300 nM |
| N#C[C@@]1(c2ccc3c(N)ncnn23)O[C@H](CO)[C@@H](O)[C@H]1O | human respiratory syncytial virus | viral replication | HEp-2, A2 |  | 750 nM |
| Nc1ncnc2c1c(C(F)(F)F)cn2[C@@H]1O[C@H](CO)[C@@H](O)[C@H]1O | Trypanosoma congolense | parasite growth, resazurin | 6C3 diminazene-resistant | 48 h plus 24 h resazurin | 890 ± 170 nM |
| C/C=C/c1ccc(OC(C)=O)c(OC)c1 | Spodoptera frugiperda larvae | antifeedant activity, no-choice | Zea mays leaves |  | 182 µg/mL |
| Nc1ncnc2c1c(Br)cn2[C@@H]1O[C@H](CO)[C@@H](O)[C@H]1O | Trypanosoma congolense | parasite growth, resazurin | 6C3 diminazene-resistant | 48 h plus 24 h resazurin | 520 ± 30 nM |
| COc1cccc(CNC(=O)c2cc(C3CC3)nn2C)c1OC | human rhinovirus | viral replication | H1-HeLa, HRV-16 |  | < 1000 nM |
| Nc1ncnc2c1ccn2[C@@H]1O[C@H](CO)C[C@H]1O | Trypanosoma congolense | parasite growth, resazurin | 6C3 diminazene-resistant | 48 h plus 24 h resazurin | 19 ± 2 nM |
| CCOP(=O)(CC=CC[C@@H](C)[C@@H](O)[C@H]1C(=O)N[C@@H](CC)C(=O)N(C)CC(=O)N(C)[C@@H](CC(C)C)C(=O)N[C@@H](C(C)C)C(=O)N(C)[C@@H](CC(C)C)C(=O)N[C@@H](C)C(=O)N[C@H](C)C(=O)N(C)[C@@H](CC(C)C)C(=O)N(C)[C@@H](CC(C)C)C(=O)N(C)[C@@H](C(C)C)C(=O)N1C)OCC | Human coronavirus NL63 | viral replication, inhibitor, qPCR | Caco-2 | 48 h | 1600 nM |

Repeated from above:
| SMILES | organism | assay | system | setting | EC50 |
| --- | --- | --- | --- | --- | --- |
| CN(C(=O)c1ccn2ncc(-c3ccc(C(N)=O)cc3)c2c1)c1ccc(C#N)cn1 | Cryptosporidium parvum | cytopathic effect | HCT-8 |  | 107 ± 39 nM |
| N#C[C@@]1(c2ccc3c(N)ncnn23)O[C@H](CO)[C@@H](O)[C@H]1O | human respiratory syncytial virus | viral replication | HEp-2, A2 |  | 750 nM |
